Measured values from different studies.
Each line is one published result; not all experiments were run side by side. Several values in a cell are separate wells, animals, samples, runs or records. Numbers after ± are the reported error.

O=C(O)CCC(=O)O.[2H]C([2H])([2H])Oc1cc(C)c2[nH]ccc2c1CN1CC[C@@H](C2CC2)C[C@H]1c1ccc(C(=O)O)cc1
subjects with any TEAE (healthy Chinese subjects; 400 mg, single ascending dose): 50%

C[C@@H](c1ncncc1F)[C@](O)(Cn1cncn1)c1ccc(F)cc1F
drug-related TEAE incidence (item: Dizziness; human; oral, 200 mg): 0%

CC[C@H]1CC[C@H](c2ccc(-c3ccc(F)c(F)c3)cc2)CC1
fetal accumulation (rat, fetus; 5000 ng/mL in perfusate, high dose, mixture of 21 LCMs): 0.98 ± 0.88 ng/g

CC(C)=CCC/C(C)=C/CC/C(C)=C/CC[C@@](C)(O)CCC1=C(C)C(=O)C(C)=C(C)C1=O
median half-life (healthy human, plasma; oral, dose not given, together with: itraconazole): 12.3 h

Cc1ccc([C@@H]2O[C@H](CO)[C@@H](O)[C@H](O)[C@H]2O)cc1Cc1ccc(-c2ccc(F)cc2)s1
trough concentration (human, maintenance hemodialysis patients; oral, 300 mg once daily, steady state, median): 250 µg/L

COc1cc(N2CCC3(CCN(C)CC3)CC2)ccc1Nc1ncc(Cl)c(Nc2ccccc2P(C)(C)=O)n1
food effect on Ka (population PK model; human; oral, final model, unit not given; baseline: fasting): 0.588

NC1(C(=O)N[C@@H](CCO)c2ccc(Cl)cc2)CCN(c2nc[nH]c3nccc2-3)CC1
Tmax (LC-MS/MS, non-compartmental; human patients, plasma; 160/480 mg cohort, cycle 2, geometric mean, together with: enzalutamide): 1.8 h

CNC(=O)c1cccc(-c2ccc([C@@H](O)[C@H]3O[C@H](CO)[C@@H](O)[C@H](O)[C@@H]3O)c(C)c2)c1
Vss (male Sprague-Dawley rat, plasma; intravenous, 3 mg/kg, group mean): 0.741 L/kg

COc1cccc(OC)c1-c1cc(C(=O)NC2(C(=O)O)C3CC4CC(C3)CC2C4)nn1-c1ccc(C(=O)N(C)CCCN(C)CCCN(C)C(=O)CN2CCN(CC(=O)[O-])CCN(CC(=O)[O-])CCN(CC(=O)[O-])CC2)cc1C(C)C.[177Lu+3] (centres unmarked)
tissue uptake (mouse HT-29 xenograft, small intestine; 72 h post injection, biodistribution): 0.103 %ID/g

O=S(=O)(c1ccc(-c2ccc3nccc(Nc4ccncn4)c3c2)cc1)N1CCOCC1
brain concentration (female BALB/c mice; intraperitoneal, 10 mg/kg, 0.25 h): 0.05 µg/mL and 0.0617 µg/mL

C=CC(=O)N1CCC(c2ccc(C(N)=O)c(-c3ccc(Oc4ccccc4)cc3)n2)CC1
incidence (serious adverse event Leukocytosis; patients with relapsed/refractory MCL; oral): 0.9%

CCN1/C(=C/C(C)=O)Sc2ccc(F)cc21
PR interval (cynomolgus monkey; oral, 100 mg/kg, 2 h post-dose): 90 ± 3 ms

Cc1cc(-c2nccc3c2ccn3CC(=O)Nc2ccc(-c3cnccn3)cn2)ccn1
subjects with grade 1 TEAE (human; SAD part, single 20 mg dose): 16.7%

C[C@@H](Nc1cc(F)cc(F)c1)c1cc(C(=O)N(C)C)cc2c(=O)cc(N3CCOCC3)oc12
share of patients with dose interruption (patients with advanced solid tumours; oral, 120 mg twice daily continuous, monotherapy dose-expansion): 12.5%

Cn1cc(Nc2nccc(-c3ccc4c(c3)CN(C3COC3)CC[C@H]4NC(=O)c3cn(C(C)(C)C)nn3)n2)cn1
percent change from baseline (item: NKT cell count; human, clinical trial, whole blood; 150 mg twice daily, follow-up): -15.9%

CCOc1c([C@H](C)n2nc(C)c3c(N)ncnc32)cc(Cl)c(F)c1[C@@H]1CNC(=O)C1
observations with HR ≤100 bpm (ECG; previously treated B-cell malignancy patients; oral, 10 mg once daily, baseline below thresholds): 100%

O=c1cc(CO)occ1[O-].[Cl-].[W+4].c1cc[cH-]c1.c1cc[cH-]c1
oxidation peak potential (cyclic voltammetry; acetonitrile; baseline: Ag/AgCl): 0.67 to 0.73 V

Cc1ccc(Sc2ccccc2N2CCNCC2)c(C)c1
participants with TEAE (item: ureteric calculus; healthy adult men; oral, 5 mg daily, 12 days): 0%

COc1c(O)c(C)cc2c1C(=O)c1c(cc(O)c(O)c1O)C2=O
viability (HK-2 co-cultured with HepaRG; MTT; 266.67 µM, 48 h; baseline: untreated control): 47.3 ± 12.7%

CCN1CCN(Cc2ccc(NC(=O)c3ccc(C)c(NC(=O)c4cncc(-c5cccs5)c4)c3)cc2C(F)(F)F)CC1
plasma concentration (LC-MS/MS; C57BL/6 mouse, plasma; intraperitoneal, 15 mg/kg single dose, 0.25 h): 0.474 µg/mL and 0.627 µg/mL and 0.493 µg/mL

FC(F)(F)c1ccc(CNc2ccc(Cc3c[nH]c4ncc(Cl)cc34)cn2)cn1
adverse event incidence (item: Hypophosphataemia; patients with advanced solid tumours; oral, dose not given, grade 3 and 4, possibly related to drug): 9%

C=CC(=O)Nc1cc(Nc2nccc(-c3cn(C)c4ccccc34)n2)c(OC)cc1N(C)CCN(C)C
recovery (storage stability; human plasma; 2 h, on ice, MQC level): 101%

O=C1c2cccc(O)c2C(=O)c2c(O)cc(CO)cc21
viability (HK-2 co-cultured with HepaRG; MTT; 33.33 µM, 48 h; baseline: untreated control): 80.5 ± 6.84%

N[C@@H](C[18F])C(=O)O
radiochemical purity (radio-TLC; human serum; 2 h): ≥ 93%

CCc1cc(C(=O)NC)c2nccc(N3CCc4c(cc(Cn5ccnc5)cc4-c4cn(C)nc4C(F)(F)F)C3=O)c2c1
body weight (Sprague Dawley rat; oral, 100 mg/kg twice daily, day 7, 7-day toxicology study): 243 ± 7 g

COc1ccc2c(c1)CN(C(=O)CCN1CCC(Cc3ccccc3)CC1)CC[S@@+]2[O-]
mean plasma concentration (male beagle dogs, plasma; intravenous, 8 mg/kg, day 1, 14-day toxicity study): 6.44 µg/mL

CCc1nc(C(N)=O)c(Nc2ccc(N3CCC(N4CCN(C)CC4)CC3)c(OC)c2)nc1NC1CCOCC1
AUC(0-24) (Japanese patients, plasma; oral, 200 mg, cycle 0 day -2, single dose, mean): 3.6 µg·h/mL

C[C@@H](N)C1CCN(S(=O)(=O)c2cccc3cnccc23)CC1
Vz/F (healthy volunteers, fasted, plasma; oral, 150 mg): 9120 L

Cl.N=C(CC(O)c1cc2c(F)cc(F)cc2c2cc(C(F)(F)F)ccc12)Nc1ccc(F)c(F)c1 (centres unmarked)
fraction bound (equilibrium dialysis; human liver microsomes 0.5 mg/mL; 1 µM, 24 h): 0.98

CNC(=O)c1ccc(-c2cnc3ncc(Cc4ccc5ncccc5c4)n3n2)cc1F
patients with adverse event (item: Ascites; cancer patients; oral, dose not given, dose escalation, grade 3-4): 5%

COCCOc1cnc2ccn([C@H](C)c3nnc4c(F)cc(-c5cnn(C)c5)cn34)c(=O)c2c1
Ctrough (patients, plasma; oral, 200 mg twice daily, day 1 predose, 400 per day): 1.28 µg/mL

CCc1c(-c2ccccc2)c(-c2ccccc2)nn1-c1ccccc1-c1cccc(OCC(=O)O)c1
concentration (female Sprague-Dawley rat, uterus homogenate; oral, 10 mg/kg, 4 h): 0.305 µg/mL

CCCC[C@H](NC(=O)[C@@H](NC(=O)[C@H](CCC(=O)O)NC(=O)CNC(=O)[C@@H](NC(=O)[C@H](Cc1ccccc1)NC(=O)[C@H](C)NC(=O)[C@H](CCCCN)NC(=O)CNC(=O)[C@H](Cc1ccccc1)NC(=O)[C@H](CCCCN)NC(=O)[C@H](CCCCN)NC(=O)[C@]1(C)CCCC=CCCC[C@](C)(NC(=O)[C@H](CCCCN)NC(=O)CNC(=O)[C@@H](NC(=O)CN)[C@@H](C)CC)C(=O)N[C@@H](CC(C)C)C(=O)N[C@@H](Cc2c[nH]cn2)C(=O)N[C@@H](CO)C(=O)N1)C(C)C)[C@@H](C)CC)C(=O)N[C@@H](CC(N)=O)C(=O)N[C@@H](CO)C(N)=O
retention time (HPLC C18 column): 13.4 min

CC[C@H](C)[C@H](NC(=O)[C@H](CO)NC(=O)[C@H](CCCNC(=N)N)NC(C)=O)C(=O)N[C@H]1CSSC[C@@H](C(=O)N[C@H](C(N)=O)[C@@H](C)O)NC(=O)[C@H](CCCNC(=N)N)NC(=O)[C@H](Cc2c[nH]cn2)NC(=O)[C@H](C)NC(=O)CNC(=O)[C@H](Cc2c[nH]c3ccccc23)NC(=O)[C@H](CC(=O)O)NC(=O)[C@H](CCC(N)=O)NC(=O)[C@H](Cc2ccc3ccccc3c2)NC(=O)[C@H](C(C)C)NC1=O
retention factor (isocratic RP-HPLC, C18; 32% acetonitrile, phosphate pH 7.4, 1% TFA; 25 °C): 1.234 ± 0.006

Nc1ncnc2c1ncn2[C@H]1C[C@@H]2OP(=O)(O)OC[C@H]3O[C@@H](n4cnc5c(N)ncnc54)C[C@@H]3OP(=O)(O)OC[C@H]2O1
mean platelet volume (non-tumor-bearing mice, blood; intravenous, 1 mg/kg, toxicity study): 5.03 ± 0.42 fL

CN1CCC(COc2cnc(-c3cccc(Cn4nc(-c5cccc(C#N)c5)ccc4=O)c3)nc2)CC1
dose-adjusted solubility (FaSSIF; literature solubility over dose): 0.00243 mL⁻¹

N#Cc1ccc2c(c1)[C@H]1CCCN(C(=O)c3ccc4[nH]cnc4c3)[C@H]1C2
total testosterone level (human males; 20 mg, day 7): 10.2 nmol/L

COc1ccnc(C(=O)N[C@@H](CO)C(=O)O[C@@H](C)[C@H](O)[C@@H](Cc2ccccc2)C(=O)O)c1O
share of TRR (lactating goat, female, kidney; oral, 21.3 mg/kg bw/day, 5 days): 16.8 to 32.7%

Cc1nc2cccc(OCC(C)(C)C(=O)NC(C)C)c2c(N)c1C(=O)O
micronucleated polychromatic erythrocytes (male Swiss albino CD-1 mouse, bone marrow; oral, 2000 mg/kg, 24 h): 0.04%

NC(=O)N1c2ccccc2C=Cc2ccccc21
adverse events incidence (item: conjunctival haemorrhage; human male; oral, dose not given, CTCAE on-treatment AEs): 7%

Cl.[2H]C([2H])([2H])CC(=O)c1cnc(NC(=O)C2CC2)cc1Nc1cccc(-c2ncn(C([2H])([2H])[2H])n2)c1OC
CL/F (human, fasted, multiple dose; oral, 20 mg twice daily, tablet, day 14, geometric mean): 10.4 L/h

CN1C[C@H](COc2nccc3c(NCc4ccco4)cc(Cl)nc23)OC1=O
RR interval (rabbit NZW female, isolated Langendorff heart; 3 µM, 15 min): 415 ms

CC(C)(C(=O)N1CCOc2c(C#N)cncc2C1)C(F)F
subjects with TEAE (item: vessel puncture site pain; healthy humans, both sexes; oral, 20 mg single dose): 0%

OC[C@H]1O[C@@H](c2ccc(Cl)c(Cc3ccc(O[C@H]4CCOC4)cc3)c2)[C@H](O)[C@@H](O)[C@@H]1O
change in Phosphate (Japanese type 1 diabetes patients, blood; 10 mg, day 28; baseline: baseline): 0.1 mg/dL

CC[C@H](C)[C@H](N)C(=O)N[C@H]1CSSC[C@@H](C(=O)N[C@H](C(N)=O)[C@@H](C)O)NC(=O)[C@H](CCCNC(=N)N)NC(=O)[C@H](Cc2c[nH]cn2)NC(=O)[C@H](Cc2c[nH]cn2)NC(=O)CNC(=O)[C@H](Cc2c[nH]c3ccccc23)NC(=O)[C@H](CC(=O)O)NC(=O)[C@H](CCC(N)=O)NC(=O)[C@H](C(C)C)NC(=O)[C@H](C(C)C)NC1=O
retention factor (isocratic RP-HPLC, C18; 32% acetonitrile, phosphate pH 7.4, 1% TFA; 25 °C): 0.363 ± 0.02

COc1cc2c3c(n(CCCN4CCOCC4)c(=O)c2cc1OC)-c1cc2c(cc1C3=O)OCO2
Vz (beagle dog, female, plasma; intravenous infusion, 10 mg/m^2, 1 h infusion, vehicle 1): 426 ± 152 L/m²

N#Cc1ccc(-c2cnc3ccc(-c4ccc(C(=O)N5CCOCC5)cc4)cn23)cc1
placebo-corrected change from baseline (item: PR interval; healthy volunteers; oral, 10 mg, fasted, time-averaged): 4.3 ms

C=CCN1CC(=O)N2[C@@H](Cc3ccc(O)cc3F)C(=O)N(Cc3cccc(N4CC(N5CCN(CC)CC5)C4)n3)C[C@@H]2N1C(=O)NCc1ccccc1
treatment-related adverse events (item: AST increased; human advanced solid tumours; concentration not given, dose escalation any grade): 13.9%

N#C[C@@]1(c2ccc3c(N)ncnn23)O[C@H](CO)[C@@H](O)[C@H]1O
bound fraction (plasma protein binding; rat plasma; 1 µM): 0.0294

O=C(Nc1nc2cccc(-c3ccc(CN4CCS(=O)(=O)CC4)cc3)n2n1)C1CC1
treatment-emergent adverse events (item: hypertension; human rheumatoid arthritis patients; oral, 300 mg once daily, 4 weeks, regardless of relatedness): 0%
